# Assay results pooled from the literature.
# Each line is one published result; not all experiments were run side by side. ± gives the spread as reported.
# T1: RNA aptamer A9G; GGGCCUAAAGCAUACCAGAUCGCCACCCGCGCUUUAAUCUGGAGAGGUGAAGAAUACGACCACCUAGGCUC
SMILES,target,test,test system,setting,scale,endpoint,value
CCCCCCCCCCCCCCCC(=O)OC[C@H](CSC[C@H](NC(=O)COCC(=O)NCCCOCCOCCOCCCNC(=O)CN(CCN(CCN(CC(=O)O)CC(=O)O)CC(=O)O)CC(=O)O)C(=O)NCC(=O)N[C@H](CO)C(=O)NCCCOCCOCCOCCCNC(=O)COCC(N)=O)OC(=O)CCCCCCCCCCCCCCC,"TLR2 (Homo sapiens, UniProt O60603)",europium TRF saturation binding,SU.86.86,,,Bmax,270000 AFU
CNc1ccccc1C(=O)O[C@H]1C[C@H](n2cnc3c(N)ncnc32)O[C@@H]1COP(=O)(O)OP(=O)(O)O,"Unconventional myosin-Va (Gallus gallus, UniProt Q02440, D297C/G292C/I296C/S293C/V295G)",stopped-flow FRET,,"25 °C, with: MgCl2 10 mM",,pocket reverse rate constant,3.99 ± 2.24 s⁻¹
CC(=O)NCCN(CCC(=O)NCCN(CCC(=O)NCCN(CCC(=O)NCCC(N)=O)C(=O)[C@@H](N)Cc1ccccc1)C(=O)[C@@H](N)Cc1ccccc1)C(=O)[C@@H](N)CCCNC(=N)N,HIV-1 TAR RNA,,,concentration not given,,heat capacity change ΔCp,-2 ± 0.4 kJ/mol/K
CC(=O)N[C@@H](CC(=O)O)C(=O)N[C@H]1CSSC[C@@H](C(=O)N[C@H](C(=O)N[C@@H](Cc2ccccc2)C(=O)N[C@@H](Cc2c[nH]cn2)C(N)=O)[C@@H](C)O)NC(=O)[C@H](Cc2c[nH]c3ccccc23)NC(=O)[C@H](C(C)C)NC(=O)[C@H](CC(C)C)NC(=O)[C@H](CCC(=O)O)NC(=O)CNC(=O)[C@H](CC(C)C)NC(=O)[C@H](Cc2c[nH]cn2)NC(=O)[C@H](Cc2ccc(O)cc2)NC(=O)[C@H](C)NC1=O,"Immunoglobulin heavy constant gamma 1 (IGHG1, Homo sapiens, UniProt P01857)","binding, ITC",,"25 °C, with: Herceptin",,ΔG,-11 kcal/mol
CC(C)C[C@H](NC(=O)CNC(=O)[C@H](CC(N)=O)NC(=O)[C@@H]1CCCN1C(=O)[C@@H](NC(=O)[C@@H](N)CO)[C@@H](C)OP(=O)(O)O)C(=O)O,"Serine/threonine-protein kinase PLK1, polo-box domain (PLK1, Homo sapiens, UniProt P53350)","polo-box domain binding, fluorescence polarization",,concentration not given,,binding,no binding
CC(=O)N[C@H]1[C@@H](OP(=O)(O)O)O[C@H](CO)[C@@H](O)[C@@H]1O,"Uncharacterized protein (Trypanosoma brucei brucei, UniProt Q386Q8)",surface plasmon resonance,Trypanosoma brucei,"concentration not given, ligand alone",,binding,no binding
CCCCCCCC(=O)Nc1ccc(OC)nc1C,"CES1 (Homo sapiens, UniProt P23141)","enzyme activity, substrate",,"pH 8, 37 °C, substrate 3.13 to 100 µM",,Km,25 µM
CC(=O)NCCN(CCC(=O)NCCN(CCC(=O)NCCN(CCC(=O)NCCC(N)=O)C(=O)[C@@H](N)CCCNC(=N)N)C(=O)[C@@H](N)CCCCN)C(=O)[C@@H](N)Cc1ccccc1,HIV-1 TAR RNA,,,concentration not given,,heat capacity change ΔCp,-3.07 ± 0.16 kJ/mol/K
CN(C)[C@@H]1C(=O)C(C(N)=O)=C(O)[C@@]2(O)C(=O)C3=C(O)c4c(O)cccc4[C@@](C)(O)[C@H]3C[C@@H]12,"T1, RNA aptamer A9G",fluorescence titration,,"pH 7.5, 25 °C, MgCl2 10 mM",,Kd,162 nM
CC1=NC(Nc2nc(C)c3cc(C)cc(C)c3n2)=NC(C)(C)C1,"CD38 (Homo sapiens, UniProt P28907)","cyclase activity, fluorometric",,"50 µM, with: NGD+ substrate",baseline: untreated,remaining activity,52.1 ± 8.6%
COC(=O)[C@@]1(C)C=C(C(=O)Nc2cccc(C(=O)Nc3ccc(Nc4nccc(-c5cccnc5)n4)c(C)c3)c2)C(=O)CC1,"MAPK8 (Homo sapiens, UniProt P45983)","binding, SPR",,"15, 40, 70 nM, parallel kinetic model",,k4,0.00035 s⁻¹
C[C@H](NC(=O)[C@H](Cc1ccccc1)NC(=O)c1ccc(C(F)(F)F)cc1)C(=O)N[C@H](C(=O)N[C@@H](CCCC[N+](C)(C)C)C(=O)N[C@@H](CO)C(N)=O)C1CCCC1,"E3 SUMO-protein ligase CBX4 (Homo sapiens, UniProt O00257)","binding, isothermal titration calorimetry",,,baseline: Cbx7 over E3 SUMO-protein ligase CBX4 Kd,selectivity ratio,1.8 fold

# For quick reference, copied from above:
SMILES,target,test,test system,setting,scale,endpoint,value
CCCCCCCC(=O)Nc1ccc(OC)nc1C,"CES1 (Homo sapiens, UniProt P23141)","enzyme activity, substrate",,"pH 8, 37 °C, substrate 3.13 to 100 µM",,Km,25 µM
